# Results of several laboratories.
# Numbered parts are unrelated; each lists some results of a single study.
# Chain of UniProt P28482 (whole entry, looked up): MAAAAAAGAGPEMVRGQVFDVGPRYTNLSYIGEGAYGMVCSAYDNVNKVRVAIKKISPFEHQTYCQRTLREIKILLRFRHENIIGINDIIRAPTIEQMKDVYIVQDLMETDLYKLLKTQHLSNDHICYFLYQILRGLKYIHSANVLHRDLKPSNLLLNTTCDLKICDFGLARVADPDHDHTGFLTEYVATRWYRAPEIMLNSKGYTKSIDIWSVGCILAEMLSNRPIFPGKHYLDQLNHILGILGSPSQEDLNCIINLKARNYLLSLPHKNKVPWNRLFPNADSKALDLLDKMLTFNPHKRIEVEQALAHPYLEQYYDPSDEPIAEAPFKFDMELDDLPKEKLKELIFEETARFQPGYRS
# Chain of UniProt P32298 (whole entry, looked up): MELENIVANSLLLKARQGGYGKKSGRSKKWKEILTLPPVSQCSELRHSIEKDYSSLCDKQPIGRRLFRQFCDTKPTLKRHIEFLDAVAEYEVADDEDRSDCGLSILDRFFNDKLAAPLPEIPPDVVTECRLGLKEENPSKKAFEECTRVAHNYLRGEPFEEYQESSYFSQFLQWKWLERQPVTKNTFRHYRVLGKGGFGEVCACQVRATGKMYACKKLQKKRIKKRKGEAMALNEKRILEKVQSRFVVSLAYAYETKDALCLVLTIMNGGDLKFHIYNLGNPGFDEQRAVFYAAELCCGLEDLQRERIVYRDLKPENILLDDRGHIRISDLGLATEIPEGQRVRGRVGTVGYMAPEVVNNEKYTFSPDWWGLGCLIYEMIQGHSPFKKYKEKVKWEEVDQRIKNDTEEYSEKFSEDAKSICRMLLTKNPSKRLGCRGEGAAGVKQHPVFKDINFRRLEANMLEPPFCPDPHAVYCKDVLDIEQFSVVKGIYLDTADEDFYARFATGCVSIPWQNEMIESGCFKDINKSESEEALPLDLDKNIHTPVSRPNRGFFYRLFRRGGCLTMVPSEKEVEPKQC
# Chain of UniProt O75914 (whole entry, looked up): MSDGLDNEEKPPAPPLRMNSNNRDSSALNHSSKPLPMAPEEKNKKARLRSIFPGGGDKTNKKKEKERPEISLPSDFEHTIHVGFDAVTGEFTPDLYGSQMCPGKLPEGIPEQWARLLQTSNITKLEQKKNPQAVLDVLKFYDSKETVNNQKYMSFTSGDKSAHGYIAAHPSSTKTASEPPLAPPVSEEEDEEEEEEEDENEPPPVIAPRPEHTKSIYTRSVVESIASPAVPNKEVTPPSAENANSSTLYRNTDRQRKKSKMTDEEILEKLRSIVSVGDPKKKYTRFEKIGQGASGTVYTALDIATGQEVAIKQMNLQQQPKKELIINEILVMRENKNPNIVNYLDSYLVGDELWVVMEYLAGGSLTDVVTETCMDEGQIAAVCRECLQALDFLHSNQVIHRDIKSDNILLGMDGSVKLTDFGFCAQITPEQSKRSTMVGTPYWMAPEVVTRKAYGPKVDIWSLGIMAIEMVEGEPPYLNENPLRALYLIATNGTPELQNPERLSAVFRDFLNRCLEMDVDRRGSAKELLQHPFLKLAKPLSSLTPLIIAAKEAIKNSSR
# Chain of UniProt P06493 (whole entry, looked up): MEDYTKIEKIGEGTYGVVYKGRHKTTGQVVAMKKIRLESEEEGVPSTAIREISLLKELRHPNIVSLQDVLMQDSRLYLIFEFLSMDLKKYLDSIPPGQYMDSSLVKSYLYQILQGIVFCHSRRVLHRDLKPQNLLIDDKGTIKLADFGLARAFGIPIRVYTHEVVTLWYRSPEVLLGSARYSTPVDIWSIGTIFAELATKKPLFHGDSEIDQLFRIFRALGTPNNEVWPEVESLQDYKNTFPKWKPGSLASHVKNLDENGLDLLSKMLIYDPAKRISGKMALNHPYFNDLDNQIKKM
# Chain of UniProt Q7KZI7 (whole entry, looked up): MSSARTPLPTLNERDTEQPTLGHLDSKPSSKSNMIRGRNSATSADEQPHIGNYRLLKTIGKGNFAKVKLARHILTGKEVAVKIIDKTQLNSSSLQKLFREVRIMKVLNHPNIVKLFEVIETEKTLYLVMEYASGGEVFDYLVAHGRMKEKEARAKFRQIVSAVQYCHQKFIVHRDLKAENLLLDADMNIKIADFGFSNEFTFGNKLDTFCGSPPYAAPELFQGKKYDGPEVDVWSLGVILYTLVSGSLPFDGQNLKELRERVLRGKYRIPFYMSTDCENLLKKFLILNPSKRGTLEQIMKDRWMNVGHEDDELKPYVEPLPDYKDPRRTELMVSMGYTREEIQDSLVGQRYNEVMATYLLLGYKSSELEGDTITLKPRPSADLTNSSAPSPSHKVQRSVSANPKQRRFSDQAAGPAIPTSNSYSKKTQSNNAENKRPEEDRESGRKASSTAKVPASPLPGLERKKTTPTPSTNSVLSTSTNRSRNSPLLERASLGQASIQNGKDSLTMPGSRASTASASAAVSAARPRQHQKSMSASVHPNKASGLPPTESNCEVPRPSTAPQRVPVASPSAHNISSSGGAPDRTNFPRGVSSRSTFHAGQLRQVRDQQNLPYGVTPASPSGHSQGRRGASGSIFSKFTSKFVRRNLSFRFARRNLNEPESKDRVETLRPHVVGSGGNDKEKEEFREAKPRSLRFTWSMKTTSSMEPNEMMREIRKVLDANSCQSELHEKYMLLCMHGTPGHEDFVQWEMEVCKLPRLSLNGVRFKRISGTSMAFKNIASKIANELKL
# Chain of UniProt Q96L34 (whole entry, looked up): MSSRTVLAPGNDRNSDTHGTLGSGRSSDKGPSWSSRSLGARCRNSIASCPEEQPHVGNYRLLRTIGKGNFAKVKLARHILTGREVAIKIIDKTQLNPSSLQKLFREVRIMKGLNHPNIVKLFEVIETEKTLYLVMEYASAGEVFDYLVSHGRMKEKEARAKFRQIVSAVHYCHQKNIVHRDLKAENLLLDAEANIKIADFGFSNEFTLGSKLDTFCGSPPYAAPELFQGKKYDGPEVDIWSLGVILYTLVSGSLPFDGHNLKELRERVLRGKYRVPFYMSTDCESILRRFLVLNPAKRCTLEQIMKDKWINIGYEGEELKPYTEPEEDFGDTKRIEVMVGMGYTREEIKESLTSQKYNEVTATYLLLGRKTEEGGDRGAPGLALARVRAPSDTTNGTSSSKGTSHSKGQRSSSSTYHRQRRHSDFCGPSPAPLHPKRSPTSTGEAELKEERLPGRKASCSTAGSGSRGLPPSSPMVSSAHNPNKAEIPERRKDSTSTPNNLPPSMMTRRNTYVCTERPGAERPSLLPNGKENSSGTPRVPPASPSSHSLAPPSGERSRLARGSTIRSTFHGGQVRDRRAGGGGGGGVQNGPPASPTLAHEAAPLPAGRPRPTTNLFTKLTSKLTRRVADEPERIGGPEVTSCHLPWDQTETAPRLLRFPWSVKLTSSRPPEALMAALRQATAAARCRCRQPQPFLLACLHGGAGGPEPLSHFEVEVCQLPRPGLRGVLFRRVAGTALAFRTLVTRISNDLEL
# Chain of UniProt Q16832 (whole entry, looked up): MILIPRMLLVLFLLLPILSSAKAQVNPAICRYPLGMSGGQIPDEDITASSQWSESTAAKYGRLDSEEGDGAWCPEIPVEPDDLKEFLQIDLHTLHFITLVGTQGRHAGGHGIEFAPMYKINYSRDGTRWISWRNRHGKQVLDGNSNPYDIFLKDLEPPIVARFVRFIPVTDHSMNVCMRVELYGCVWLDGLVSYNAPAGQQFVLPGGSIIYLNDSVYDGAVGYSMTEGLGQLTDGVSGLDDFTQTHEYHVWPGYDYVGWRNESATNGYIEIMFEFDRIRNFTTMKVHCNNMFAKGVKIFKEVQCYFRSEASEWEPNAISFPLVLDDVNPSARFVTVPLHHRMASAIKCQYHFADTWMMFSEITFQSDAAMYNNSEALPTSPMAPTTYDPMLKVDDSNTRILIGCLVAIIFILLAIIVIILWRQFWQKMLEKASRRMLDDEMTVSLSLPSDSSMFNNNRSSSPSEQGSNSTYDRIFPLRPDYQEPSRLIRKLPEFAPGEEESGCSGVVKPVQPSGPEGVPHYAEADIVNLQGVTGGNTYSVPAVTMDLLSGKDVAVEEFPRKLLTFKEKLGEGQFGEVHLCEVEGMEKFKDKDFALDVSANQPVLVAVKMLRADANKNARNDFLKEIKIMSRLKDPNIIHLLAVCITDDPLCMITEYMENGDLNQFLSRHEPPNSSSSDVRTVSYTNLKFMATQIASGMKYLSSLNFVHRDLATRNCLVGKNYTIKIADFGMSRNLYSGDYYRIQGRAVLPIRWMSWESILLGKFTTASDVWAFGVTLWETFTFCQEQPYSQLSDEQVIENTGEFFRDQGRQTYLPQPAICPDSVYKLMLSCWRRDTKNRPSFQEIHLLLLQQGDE
# Chain of UniProt O75676 (whole entry, looked up): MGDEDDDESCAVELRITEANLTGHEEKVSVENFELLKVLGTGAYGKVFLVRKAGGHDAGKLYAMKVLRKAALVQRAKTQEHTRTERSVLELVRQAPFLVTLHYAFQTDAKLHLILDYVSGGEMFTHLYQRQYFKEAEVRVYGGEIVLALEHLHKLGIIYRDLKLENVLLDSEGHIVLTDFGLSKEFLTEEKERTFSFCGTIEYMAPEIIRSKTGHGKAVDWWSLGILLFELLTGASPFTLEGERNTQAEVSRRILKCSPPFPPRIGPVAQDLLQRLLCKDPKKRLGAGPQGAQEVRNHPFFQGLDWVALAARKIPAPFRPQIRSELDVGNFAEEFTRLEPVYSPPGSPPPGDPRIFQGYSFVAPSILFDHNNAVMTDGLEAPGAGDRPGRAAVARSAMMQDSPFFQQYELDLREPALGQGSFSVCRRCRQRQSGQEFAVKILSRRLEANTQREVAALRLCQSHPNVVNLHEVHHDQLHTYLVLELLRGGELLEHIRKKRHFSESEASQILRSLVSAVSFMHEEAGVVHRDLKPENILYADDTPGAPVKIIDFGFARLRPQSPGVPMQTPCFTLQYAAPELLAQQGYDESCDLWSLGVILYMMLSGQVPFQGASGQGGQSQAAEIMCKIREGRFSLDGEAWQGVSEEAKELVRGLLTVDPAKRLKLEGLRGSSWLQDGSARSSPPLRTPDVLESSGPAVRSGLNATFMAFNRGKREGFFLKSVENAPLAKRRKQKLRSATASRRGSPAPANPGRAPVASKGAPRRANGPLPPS

# Study 1 — observed: enzyme activity; action: inhibitor; concentration: 0.5 µM; relative to: control
# Structure (SMILES): CC[n+]1c(/C=C/N(C)c2ccccc2)n(-c2ccccc2)c2ccc(-c3nc4ccccc4s3)cc21
target,remaining activity [%]
"MINK1 (Homo sapiens, UniProt Q8N4C8)",99
"AKT2 (Homo sapiens, UniProt P31751)",99.6
"PAK3 (Homo sapiens, UniProt O75914)",109
"MAPK1 (Homo sapiens, UniProt P28482)",112
"MARK2 (Homo sapiens, UniProt Q7KZI7)",91.6
"DCLK2 (Homo sapiens, UniProt Q8N568)",102
"PRKG2 (Homo sapiens, UniProt Q13237)",92.4
"MET (Homo sapiens, UniProt P08581)",108
"Cyclin-dependent kinase 1, with cyclin A (CDK1, Homo sapiens, UniProt P06493)",98.8
"MAPK14 (Homo sapiens, UniProt Q16539)",94.9
"CLK3 (Homo sapiens, UniProt P49761)",114
"DDR2 (Homo sapiens, UniProt Q16832)",97.4
"RPS6KA4 (Homo sapiens, UniProt O75676)",94.6
"TXK (Homo sapiens, UniProt P42681)",107
"GRK4 (Homo sapiens, UniProt P32298)",103
"KDR (Homo sapiens, UniProt P35968)",93.9
"MARK4 (Homo sapiens, UniProt Q96L34)",110
"MAP2K1 (Homo sapiens, UniProt Q02750)",93.5

# Study 2 — host: mouse; medium: microsomes or S9; concentration: 2 µM; time: 0.5 h
Structure (SMILES),remaining compound
CNS(=O)(=O)c1ccc2c(c1)CCN2C(C)=O,44.2%
CCCn1ccnc1CN(C)Cc1cnn(-c2cccc(OC)c2)c1,0.0981%
O=C(CN1C(=O)CNC1=O)N1C[C@H]2CC=CC[C@H]2C1,88%
CC(C)NC(=O)c1[nH]cnc1C(=O)N1CCCCCC1,53.9%
CCC(C)n1c(=O)c2sccc2n2c(CCCC(=O)N3CCc4ccccc4C3)nnc12 (stereo not shown),0.872%
COc1cc(=O)n(-c2ccccc2)cc1C(=O)N1CC(S(=O)(=O)c2nccn2C)C1,99.4%
O=c1[nH]cnc2c1sc1nc(-c3ccccc3)cc(-c3ccccc3)c12,49.8%
CCc1ccc(S(=O)(=O)[C@H]2CS(=O)(=O)C[C@@H]2N(C)CCc2ccncc2)cc1,0.468%

# Study 3 — observed: acetyl-histone H4 peptide binding; method: AlphaScreen displacement; concentration: 50 µM
# Target: Bromodomain-containing protein 4, BD1 (BRD4, Homo sapiens, UniProt O60885)
SMILES,inhibition
OC1CCCN(Cc2c(-c3ccc(F)cc3)[nH]c3ncccc23)C1 (stereo not shown),8.4%
Brc1c(Br)c(Br)c2[nH]nnc2c1Br,6.9%
O=C(NNC(=O)c1c(O)c2ccccc2[nH]c1=O)c1ccccc1[N+](=O)[O-],18.2%
Cc1nc(-c2ccccn2)nc(NCCNc2cc(C(F)(F)F)ccn2)c1Cl,24.6%
O=c1[nH]c(CN2CCC(O)C2)nc2c1SC1C=CC(c3ccc(O)cc3)=CC21 (stereo not shown),99.5%
COc1cccc(NC(=O)c2c(O)c3ccccc3[nH]c2=O)c1,36.7%
CCOC(=O)c1ccc(NC(=O)Nc2ccc(Cl)c(Cl)c2)cc1,-10.3%
O=c1cc(-c2ccc(O)cc2)oc2cc(O)cc(O)c12.O=c1cc(-c2ccc(O)cc2)oc2cc(O)cc(O)c12,31.8%
Cc1ccc(NC2=CC(=O)c3sc(C)nc3C2=O)cc1,81.3%

# Single results of other studies
Compound,target,assay,setting,quantity,result
"COc1ccc2c(c1)O[C@@H](c1ccc(OC)c(OC)c1)C[C@H]2NC(=O)C1(c2ccc3c(c2)OC(F)(F)O3)CC1 (single isomer, unassigned)","TMEM97 (Homo sapiens, UniProt Q5BJF2)",binding,off-target scan,Ki,584 nM
NC(=O)c1ccc2nc(-c3ccc(C4(N)CCC4)cc3)c(-c3ccccc3)n2n1,"HTR1B (Homo sapiens, UniProt P28222)",ligand displacement,10 µM,inhibition,10.2%

# A few entries again (study 1):
target,remaining activity [%]
"MAPK1 (Homo sapiens, UniProt P28482)",112
"MARK2 (Homo sapiens, UniProt Q7KZI7)",91.6
"DCLK2 (Homo sapiens, UniProt Q8N568)",102
"PRKG2 (Homo sapiens, UniProt Q13237)",92.4
